Results collected from several papers.
Each line is one published result; not all experiments were run side by side. ± gives the spread as reported.
Aminopeptidase N: Aminopeptidase N (Neisseria meningitidis, UniProt Q9JYV4)
CPL: CPL (Toxoplasma gondii, UniProt Q6DMN0)
BPHL: Serine hydrolase BPHL (BPHL, Homo sapiens, UniProt Q86WA6)
Chain of UniProt Q86WA6 (whole entry, looked up): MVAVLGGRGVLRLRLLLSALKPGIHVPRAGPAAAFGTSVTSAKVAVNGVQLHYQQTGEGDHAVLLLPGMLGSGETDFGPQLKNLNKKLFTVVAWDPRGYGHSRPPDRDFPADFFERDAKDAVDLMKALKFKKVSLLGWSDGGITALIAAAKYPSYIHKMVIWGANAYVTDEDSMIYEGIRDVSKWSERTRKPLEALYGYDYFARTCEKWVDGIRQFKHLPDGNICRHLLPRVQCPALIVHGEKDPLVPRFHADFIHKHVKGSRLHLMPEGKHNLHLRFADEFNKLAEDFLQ
Chain of UniProt P00691 (whole entry, unmodified, looked up): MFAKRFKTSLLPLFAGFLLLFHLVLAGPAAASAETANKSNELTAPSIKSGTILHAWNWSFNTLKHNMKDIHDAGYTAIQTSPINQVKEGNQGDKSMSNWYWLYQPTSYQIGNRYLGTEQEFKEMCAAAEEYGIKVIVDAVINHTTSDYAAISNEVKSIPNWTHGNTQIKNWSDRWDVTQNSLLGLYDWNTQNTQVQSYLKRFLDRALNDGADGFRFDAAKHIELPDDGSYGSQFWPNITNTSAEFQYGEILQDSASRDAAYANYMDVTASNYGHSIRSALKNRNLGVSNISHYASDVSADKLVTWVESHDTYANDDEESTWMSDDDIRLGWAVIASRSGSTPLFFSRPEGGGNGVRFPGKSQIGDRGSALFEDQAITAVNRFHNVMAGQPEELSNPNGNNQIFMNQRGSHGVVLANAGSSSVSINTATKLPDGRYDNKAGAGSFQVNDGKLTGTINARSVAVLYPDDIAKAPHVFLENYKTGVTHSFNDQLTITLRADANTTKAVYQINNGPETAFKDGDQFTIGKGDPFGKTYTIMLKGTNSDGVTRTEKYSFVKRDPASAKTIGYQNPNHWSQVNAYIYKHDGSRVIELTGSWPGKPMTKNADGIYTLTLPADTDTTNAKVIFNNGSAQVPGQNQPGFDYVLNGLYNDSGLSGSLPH
Chain of UniProt P06401 (whole entry, looked up): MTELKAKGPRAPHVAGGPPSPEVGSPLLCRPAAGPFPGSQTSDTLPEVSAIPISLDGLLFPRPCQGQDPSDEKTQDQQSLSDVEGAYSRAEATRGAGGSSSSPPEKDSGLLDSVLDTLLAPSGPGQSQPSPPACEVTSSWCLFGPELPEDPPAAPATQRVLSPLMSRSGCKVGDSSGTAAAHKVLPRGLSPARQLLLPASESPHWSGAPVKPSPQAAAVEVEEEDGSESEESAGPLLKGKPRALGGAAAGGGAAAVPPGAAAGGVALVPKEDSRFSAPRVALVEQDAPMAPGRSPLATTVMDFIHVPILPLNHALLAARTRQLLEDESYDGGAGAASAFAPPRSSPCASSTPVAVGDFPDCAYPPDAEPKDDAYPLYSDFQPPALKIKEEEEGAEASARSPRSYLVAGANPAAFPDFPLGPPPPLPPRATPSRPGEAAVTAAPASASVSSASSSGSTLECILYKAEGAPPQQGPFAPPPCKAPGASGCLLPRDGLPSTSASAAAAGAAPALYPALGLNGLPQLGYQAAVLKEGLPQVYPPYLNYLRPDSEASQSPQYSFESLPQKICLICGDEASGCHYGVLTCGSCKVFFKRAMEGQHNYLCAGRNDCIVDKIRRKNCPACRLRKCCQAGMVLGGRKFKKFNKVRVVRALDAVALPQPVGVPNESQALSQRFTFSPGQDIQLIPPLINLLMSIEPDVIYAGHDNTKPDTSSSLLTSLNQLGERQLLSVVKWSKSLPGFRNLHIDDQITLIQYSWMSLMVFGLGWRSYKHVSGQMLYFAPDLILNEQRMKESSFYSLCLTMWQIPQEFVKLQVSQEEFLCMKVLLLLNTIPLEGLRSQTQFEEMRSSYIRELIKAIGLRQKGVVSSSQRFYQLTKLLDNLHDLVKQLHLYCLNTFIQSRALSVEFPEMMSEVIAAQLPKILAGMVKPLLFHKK
Chain of UniProt P22303 (whole entry, looked up): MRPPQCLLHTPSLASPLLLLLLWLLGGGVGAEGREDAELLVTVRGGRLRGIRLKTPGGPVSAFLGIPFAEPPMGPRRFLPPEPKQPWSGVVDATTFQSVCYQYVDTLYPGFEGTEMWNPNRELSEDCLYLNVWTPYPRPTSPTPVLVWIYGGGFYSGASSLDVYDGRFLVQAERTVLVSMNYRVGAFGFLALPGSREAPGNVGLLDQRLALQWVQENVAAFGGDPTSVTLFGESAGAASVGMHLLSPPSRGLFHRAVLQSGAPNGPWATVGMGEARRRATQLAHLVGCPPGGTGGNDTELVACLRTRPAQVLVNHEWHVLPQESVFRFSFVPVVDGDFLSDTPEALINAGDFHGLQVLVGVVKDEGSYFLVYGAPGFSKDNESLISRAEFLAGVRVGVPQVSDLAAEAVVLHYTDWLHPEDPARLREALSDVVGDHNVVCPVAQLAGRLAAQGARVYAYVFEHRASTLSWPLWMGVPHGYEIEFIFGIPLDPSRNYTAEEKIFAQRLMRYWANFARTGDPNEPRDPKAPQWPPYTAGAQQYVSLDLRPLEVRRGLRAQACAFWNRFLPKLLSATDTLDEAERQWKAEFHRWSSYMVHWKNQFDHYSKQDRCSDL
Chain of UniProt P33533 (whole entry, looked up): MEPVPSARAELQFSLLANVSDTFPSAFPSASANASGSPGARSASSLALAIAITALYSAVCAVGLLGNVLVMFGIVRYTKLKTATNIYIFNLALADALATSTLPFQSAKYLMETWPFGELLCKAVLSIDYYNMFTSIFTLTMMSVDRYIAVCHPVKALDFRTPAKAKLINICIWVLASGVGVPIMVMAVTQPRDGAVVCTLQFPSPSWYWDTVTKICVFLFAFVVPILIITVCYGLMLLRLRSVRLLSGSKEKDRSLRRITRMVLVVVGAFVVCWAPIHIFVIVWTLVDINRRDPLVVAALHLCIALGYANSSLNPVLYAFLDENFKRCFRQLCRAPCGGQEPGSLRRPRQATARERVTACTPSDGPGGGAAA
Chain of UniProt P21554 (whole entry, looked up): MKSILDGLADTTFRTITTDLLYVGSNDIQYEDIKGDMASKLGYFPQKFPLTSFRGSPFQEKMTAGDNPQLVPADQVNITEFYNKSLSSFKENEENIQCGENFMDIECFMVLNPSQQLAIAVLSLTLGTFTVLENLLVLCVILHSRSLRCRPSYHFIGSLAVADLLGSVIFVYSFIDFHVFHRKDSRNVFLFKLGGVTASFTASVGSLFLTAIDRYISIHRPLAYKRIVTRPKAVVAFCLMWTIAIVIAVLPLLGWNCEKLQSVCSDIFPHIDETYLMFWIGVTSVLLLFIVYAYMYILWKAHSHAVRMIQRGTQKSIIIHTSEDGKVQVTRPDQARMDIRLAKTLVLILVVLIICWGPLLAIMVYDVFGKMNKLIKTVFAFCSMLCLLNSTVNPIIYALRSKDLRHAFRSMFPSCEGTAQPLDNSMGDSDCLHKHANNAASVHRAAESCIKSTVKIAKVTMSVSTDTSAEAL
Chain of UniProt P49759 (whole entry, looked up): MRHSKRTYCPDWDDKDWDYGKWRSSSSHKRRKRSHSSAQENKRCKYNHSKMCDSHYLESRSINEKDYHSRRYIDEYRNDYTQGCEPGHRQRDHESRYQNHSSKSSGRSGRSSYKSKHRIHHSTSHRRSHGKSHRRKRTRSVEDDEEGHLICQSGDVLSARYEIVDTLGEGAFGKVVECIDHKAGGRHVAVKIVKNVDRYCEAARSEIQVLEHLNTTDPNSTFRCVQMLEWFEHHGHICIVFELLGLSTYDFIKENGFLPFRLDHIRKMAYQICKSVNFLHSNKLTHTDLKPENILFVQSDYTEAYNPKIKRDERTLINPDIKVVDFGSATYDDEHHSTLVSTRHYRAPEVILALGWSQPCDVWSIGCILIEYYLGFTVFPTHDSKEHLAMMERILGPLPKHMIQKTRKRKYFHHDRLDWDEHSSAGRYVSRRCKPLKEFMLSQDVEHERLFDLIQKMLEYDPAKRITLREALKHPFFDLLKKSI
Chain of UniProt Q9H008 (whole entry, looked up): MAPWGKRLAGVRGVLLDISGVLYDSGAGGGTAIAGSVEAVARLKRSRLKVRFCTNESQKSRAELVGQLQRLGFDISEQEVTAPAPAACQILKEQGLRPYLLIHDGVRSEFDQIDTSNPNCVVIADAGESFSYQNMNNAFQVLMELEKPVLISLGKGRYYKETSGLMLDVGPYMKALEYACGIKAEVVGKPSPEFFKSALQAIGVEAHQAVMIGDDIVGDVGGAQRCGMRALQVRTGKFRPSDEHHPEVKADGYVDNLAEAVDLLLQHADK

`C=CC[C@H](N)C(=O)Nc1ccc2c(CC(N)=O)cc(=O)oc2c1` has a Km of 59.7 ± 2.7 µM (Aminopeptidase N; enzyme activity, substrate; pH 7.5, 37 °C).
`C[C@@H]1Oc2c(c(=O)oc3c2ccc2ccccc23)[C@@H]1C` gave a remaining activity of 72 ± 2% (SYK (Homo sapiens, UniProt P43405); enzyme activity, inhibitor, ADP-Glo; 5 µM).
`N#Cc1nc(N2CCOCC2)nc(N(Cc2ccc(F)cc2)CC2CCCC2)n1` has a selectivity ratio of 0.81 (CPL; enzyme activity, inhibitor; reference: human over Toxoplasma IC50).
Under probe labelling, `O[C@@H]1[C@@H](O)[C@H](O[C@@H]2OC[C@@H](O)[C@H](O)[C@H]2O)C[C@H]2N[C@@H]12` is recorded as “inhibited” (Probable endo-1,4-beta-xylanase C (xlnC, Aspergillus niger, UniProt C5J411); activity-based probe binding, competitive inhibitor, in-gel fluorescence; Aspergillus niger, xylan-induced secretome; concentration not given, band near 30 kDa, together with: Cy5 xylobiose activity-based probe).
`CC(C)P(=S)(NP(=S)(C(C)C)C(C)C)C(C)C` has a ΔH of 5.76 kcal/mol (Alpha-amylase (Bacillus subtilis, UniProt P00691); binding, Van't Hoff analysis; pH 6.8, 298–310 K).
For `CC(=O)NC(Cc1ccc(Br)c(Cl)c1)C(=O)N[C@@H](C)C(=O)N1CCC[C@H]1C(=O)N1CCC[C@H]1C(=O)N[C@@H](CCC(=O)O)C(=O)N[C@@H](Cc1c[nH]cn1)C(=O)N[C@@H](CO)C(=O)N[C@H](C(=O)N[C@@H](C)C(N)=O)[C@@H](C)OP(=O)(O)O` (stereo partly shown), the inhibition was 0.54% (CLK1 (Homo sapiens, UniProt P49759); enzyme activity, inhibitor; 10 µM).
`NC(=O)Cc1cc(=O)oc2cc(NC(=O)[C@@H](N)Cc3ccccc3)ccc12` has a Km of > 250 µM (Aminopeptidase N; enzyme activity, substrate; pH 7.5, 37 °C).
`CC[C@H](C)[C@H](NC(=O)[C@H](CC(N)=O)NC(=O)[C@H](CC(N)=O)NC(=O)[C@@H](N)CCCNC(N)=O)C(=O)N1C[C@@H](n2cc([C]34[CH]5[CH]6[CH]7[CH]3[Fe]6754389%10[CH]4[CH]3[CH]8[CH]9[CH]4%10)nn2)C[C@H]1C(=O)N[C@@H](Cc1csc2ccccc12)C(=O)N[C@@H](CO)C(N)=O` (stereo partly shown) — result for “binding free energy”: -9.8 ± 1.7 kcal/mol (env (Human immunodeficiency virus type 1 group M subtype B, UniProt P35961); ITC; pH 7.4, 25 °C).
The –ΔG of `CC(=O)N[C@H]1C(O)O[C@H](CO)[C@@H](O[C@@H]2O[C@H](CO)[C@H](O)[C@H](O)[C@H]2O)[C@@H]1O` (stereo partly shown) is reported as 6.14 kcal/mol (Galectin-3 (LGALS3, Homo sapiens, UniProt P17931); binding, isothermal titration calorimetry; full-length protein).
`CCCCCn1c2ccccc2c2cc(C(=O)c3ccncc3)ccc21` has an Emax of 55.3% (CNR1 (Homo sapiens, UniProt P21554); cAMP inhibition, agonist, BRET; HEK293 expressing CNR1; together with: forskolin; reference: forskolin alone).
`CC[C@H](C)[C@@H]1NC(=O)[C@H](CC(N)=O)NC(=O)[C@@H]2CCCN2C(=O)[C@@H](NC(=O)[C@H](CC(N)=O)NC(=O)[C@@H](N)CCC(N)=O)COC(=O)[C@H](CCSC)NC(=O)[C@H](Cc2c[nH]c3ccccc23)NC(=O)[C@H](CCC(N)=O)NC(=O)CNC(=O)[C@H](Cc2ccccc2)N(C)C1=O` gave an EC50 ratio of 3 fold (Fsr quorum sensing protein (Enterococcus faecalis, UniProt A0ACD6TCR9); quorum sensing reporter, activator; reference: compound over tail-removed analog).
`Cc1nc(C)c(C(=O)Nc2ccc(F)c(-c3nc4ncc(-c5ccccn5)cn4n3)c2)o1` gave a fold resistance of ≥ 300 fold (Proteasome subunits (Trypanosoma cruzi, UniProt Q4CU77+Q4D8U7, I29M); chymotrypsin-like activity; reference: wild type).
For `CC[C@H](C)[C@H](NC(=O)[C@H](Cc1c[nH]cn1)NC(=O)[C@H](CCCCNC(=O)[C@@H](NC(=O)[C@H](CCCCN)NC(=O)CSC[C@H](NC(=O)[C@H](Cc1ccccc1)NC(=O)[C@H](CCCCNC(=O)[C@H](CC(C)C)NC(=O)[C@@H]1CCCN1C(=O)[C@H](CCCCN)NC(=O)C[C@@H]1O[C@@H](C)[C@@H](O)[C@@H](O)[C@@H]1O)NC(=O)[C@H](CC(C)C)NC(=O)[C@@H]1CCCN1C(=O)[C@H](CCCCN)NC(=O)c1ccc(O[C@@H]2O[C@H](CO)[C@H](O)[C@H](O)[C@H]2O)cc1)C(N)=O)[C@@H](C)CC)NC(=O)[C@@H](NC(=O)[C@H](CCCCN)NC(=O)CSC[C@H](NC(=O)[C@H](Cc1ccccc1)NC(=O)[C@H](CCCCNC(=O)[C@H](CC(C)C)NC(=O)[C@@H]1CCCN1C(=O)[C@H](CCCCN)NC(=O)C[C@@H]1O[C@@H](C)[C@@H](O)[C@@H](O)[C@@H]1O)NC(=O)[C@H](CC(C)C)NC(=O)[C@@H]1CCCN1C(=O)[C@H](CCCCN)NC(=O)c1ccc(O[C@@H]2O[C@H](CO)[C@H](O)[C@H](O)[C@H]2O)cc1)C(N)=O)[C@@H](C)CC)C(N)=O`, “relative potency per fucoside” read 1.3 (lecB (Pseudomonas aeruginosa, UniProt Q9HYN5); binding, isothermal titration calorimetry; divided by fucoside copies; reference: monovalent fucoside KD over ligand KD).
With `CC(=O)NCC(=O)N[C@@H](CCCNC(=N)N)C(=O)N[C@@H](CCCCNP(=O)(O)O)C(=O)NCC(=O)NCC(N)=O` the substrate hydrolysis was 40.7% (Phospholysine phosphohistidine inorganic pyrophosphate phosphatase (LHPP, Homo sapiens, UniProt Q9H008); enzyme activity; concentration not given, 90 min, pH 7.8, together with: substrate 100 µM).
`CCC(CC)OC1C=C(C(=O)OC(C)OC(=O)C(N)C(C)C)CC(NC(=N)N)C1NC(C)=O` (mixture of isomers) gave a Km of 2370 µM (BPHL; enzyme activity, substrate; pH 7.4).
With `Cc1cc(O)cc(C)c1CC(N)C(=O)NC1CCNc2c(C(=O)O)cc(Cc3ccccc3)cc21` (stereo not shown) the Ke was 15.7 nM (Oprd1 (Rattus norvegicus, UniProt P33533); GTPγS binding, antagonist; together with: SNC80).
`CCC(C)Sc1nc2c([nH]1)c(=S)n(C)c(=O)n2C` (stereo not shown) has a remaining activity of 86% (PGR (Homo sapiens, UniProt P06401); reporter gene, antagonist, MMTV-luciferase; T47D/A1-2; 10 µM, 24 h, together with: 5 nM progesterone; reference: maximal activity).
For `CC(COC(=O)c1ccccc1)OC(=O)C(N)C(C)C` (mixture of isomers), the Vmax was 0.0033 mM/min (BPHL; hydrolysis, substrate).
For `O=c1c(O)c(-c2cc(O)ccc2O)oc2cc(O)cc(O)c12`, the inhibition was 45.8 ± 2.31% (ACHE (Homo sapiens, UniProt P22303); enzyme activity, inhibitor; 62.5 µg/mL).
For `Nc1nc2c([C@@H]3O[C@@H]4COP(=O)(O)O[C@H]5[C@@H](O)[C@H](n6cnc7c(=O)[nH]c(N)nc76)O[C@@H]5COP(=O)(O)O[C@H]4[C@H]3O)snc2c(=O)[nH]1`, “dissociation rate constant k-3” read 0.135 ± 0.007 s⁻¹ (rocR (Pseudomonas aeruginosa, UniProt Q9HX69); substrate; 10 µM, second binding orientation, together with: 100 nM enzyme).
Under “V1/2 of inactivation”, `CCN(Cc1ccccc1)C(=O)CCc1nc(CN2CCN(C(=O)Cc3ccc(OC)c(OC)c3)CC2)no1` is recorded as -54.4 ± 1.23 mV (Scn10a (Rattus norvegicus, UniProt Q62968); whole-cell patch clamp; rat DRG neurons; 100 nM).
The selectivity ratio of `CCCN(Cc1ccc(F)cc1)c1nc(C#N)nc(N2CCOCC2)n1` is reported as 0.27 (CPL; enzyme activity, inhibitor; reference: human over Toxoplasma IC50).

A few entries again:
`C=CC[C@H](N)C(=O)Nc1ccc2c(CC(N)=O)cc(=O)oc2c1` has a Km of 59.7 ± 2.7 µM (Aminopeptidase N; enzyme activity, substrate; pH 7.5, 37 °C).
`C[C@@H]1Oc2c(c(=O)oc3c2ccc2ccccc23)[C@@H]1C` gave a remaining activity of 72 ± 2% (SYK (Homo sapiens, UniProt P43405); enzyme activity, inhibitor, ADP-Glo; 5 µM).
`N#Cc1nc(N2CCOCC2)nc(N(Cc2ccc(F)cc2)CC2CCCC2)n1` has a selectivity ratio of 0.81 (CPL; enzyme activity, inhibitor; reference: human over Toxoplasma IC50).
Under probe labelling, `O[C@@H]1[C@@H](O)[C@H](O[C@@H]2OC[C@@H](O)[C@H](O)[C@H]2O)C[C@H]2N[C@@H]12` is recorded as “inhibited” (Probable endo-1,4-beta-xylanase C (xlnC, Aspergillus niger, UniProt C5J411); activity-based probe binding, competitive inhibitor, in-gel fluorescence; Aspergillus niger, xylan-induced secretome; concentration not given, band near 30 kDa, together with: Cy5 xylobiose activity-based probe).
